Measured values of several laboratories.
Compare with care: the assays were run in different laboratories. Numbers after ± are the reported error. Ends that are not written are not given here.
B1: Kcnt2 Q276E/Y279E (Rattus norvegicus, UniProt Q6UVM4); chain MVDLESEVPPLPPRYRFRDLLLGDQGWQNDDRVQVEFYMNENTFKERLKLFFIKNQRSSLRIRLFNFSLKLLSCLLYIIRVLLEKPSQGNDWSHIFWVNRSLPLWGLQVSVALISLFETILLGYLSYKGNIWEQILRVPFILEIINAVPFIISIFWPTLRNLFVPVFLNCWLAKHALENMINDLHRAIQRTQSAMFNQVLILISTLLCLIFTCICGIQHLERIGKKLNLFDSLYFCIVTFSTVGFGDVTPETWSSKLFVVAMICVALVVLPIQFEELAELWMERQKSGGNYSRHRAQTEKHVVLCVSSLKIDLLMDFLNEFYAHPRLQDYYVVILCPTEMDVQVRRVLQIPMWSQRVIYLQGSALKDQDLLRAKMDNAEACFILSSRCEVDRTSSDHQTILRAWAVKDFAPNCPLYVQILKPENKFHIKFADHVVCEEEFKYAMLALNCICPATSTLITLLVHTSRGQCVCLCCREGQQSPEQWQKTYGRCSGNEVYHIVLEESTFFAEYEGKSFTYASFHAHKKFGVCLVGVRREDNKNILLNPGPRYIMNASDICFYINITKEENSAFKNQDQQRKSNVSRSFYHGPSRLPVHSIIASMGTVAIDLQDTSCRAASGPTLALPSEGGKELRRPSIAPVLEVADTSSIQTCDLLSDQSEDETTPDEETSSNLEYAKGYPPYSPYIGSSPTFCHLLQEKVPFCCLRLDKSCQHNYYEDAKAYGFKNKLIIVAAETAGNGLYNFIVPLRAYYRPKKELNPIVLLLDNPPDMHFLDAICWFPMVYYMVGSIDNLDDLLRCGVTFAANMVVVDKESTMSAEEDYMADAKTIVNVQTLFRLFSSLSIITELTHPANMRFMQFRAKDCYSLALSKLEKKERERGSNLAFMFRLPFAAGRVFSISMLDTLLYQSFVKDYMISITRLLLGLDTIPGSGFLCSMKITEDDLWIRTYARLYQKLCSSTGDVPIGIYRTESQKLTTSESQISISVEEWEDTKDVKDPGHHRSIHRNSTSSDQSDHPLLRRKSMQWARRLSRKGPKHSGKTAEKITQQRLNLYRRSERQELAELVKNRMKHLGLSTVGYDEMNDHQSTLSYILINPSPDTRLELNDVVYLIRPDPLSYLPNSEPSRKNSICNAAVQDSREETQL
B2: CDKN1A 9-84 del46-48 (Homo sapiens, UniProt P38936); sequence looked up; chain RQNPCGSKACRRLFGPVDSEQLSRDCDALMAGCIQEAWNFDFVTETPLEGDFAWERVRGLGLPKLYLPTGPRR
B3: CRYBB1 59-252 (Homo sapiens, UniProt P53674); sequence looked up; chain YRLVVFELENFQGRRAEFSGECSNLADRGFDRVRSIIVSAGPWVAFEQSNFRGEMFILEKGEYPRWNTWSSSYRSDRLMSFRPIKMDAQEHKISLFEGANFKGNTIEIQGDDAPSLWVYGFSDRVGSVKVSSGTWVGYQYPGYRGYQYLLEPGDFRHWNEWGAFQPQMQSLRRLRDKQWHLEGSFPVLATEPPK
B4: UGT1A9 (Homo sapiens, UniProt O60656); chain GKLLVVPMDGSHWFTMRSVVEKLILRGHEVVVVMPEVSWQLGRSLNCTVKTYSTSYTLEDLDREFKAFAHAQWKAQVRSIYSLLMGSYNDIFDLFFSNCRSLFKDKKLVEYLKESSFDAVFLDPFDNCGLIVAKYFSLPSVVFARGILCHYLEEGAQCPAPLSYVPRILLGFSDAMTFKERVRNHIMHLEEHLLCHRFFKNALEIASEILQTPVTEYDLYSHTSIWLLRTDFVLDYPKPVMPNMIFIGGINCHQGKPLPMEFEAYINASGEHGIVVFSLGSMVSEIPEKKAMAIADALGKIPQTVLWRYTGTRPSNLANNTILVKWLPQNDLLGHPMTRAFITHAGSHGVYESICNGVPMVMMPLFGDQMDNAKRMETKGAGVTLNVLEMTSEDLENALKAVINDKSYKENIMRLSSLHKDRPVEPLDLAVFWVEFVMRHKGAPHLRPAAHDLTWYQYHSLDVIGFLLAVVLTVAFITFKCCAYGYRKCLGKKGRVKKAHKSKTH
Sequence of UniProt P0A988 (whole entry, looked up): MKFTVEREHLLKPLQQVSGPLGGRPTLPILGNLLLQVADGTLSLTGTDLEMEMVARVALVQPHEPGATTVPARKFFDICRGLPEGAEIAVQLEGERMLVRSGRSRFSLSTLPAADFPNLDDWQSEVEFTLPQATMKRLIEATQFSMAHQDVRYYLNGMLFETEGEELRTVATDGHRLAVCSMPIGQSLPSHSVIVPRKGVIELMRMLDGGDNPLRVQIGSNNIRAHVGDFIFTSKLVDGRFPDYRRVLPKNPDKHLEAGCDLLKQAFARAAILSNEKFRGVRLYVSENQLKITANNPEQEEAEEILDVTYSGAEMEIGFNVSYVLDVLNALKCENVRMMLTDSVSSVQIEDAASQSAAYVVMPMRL
Sequence of UniProt P11142 (whole entry, looked up): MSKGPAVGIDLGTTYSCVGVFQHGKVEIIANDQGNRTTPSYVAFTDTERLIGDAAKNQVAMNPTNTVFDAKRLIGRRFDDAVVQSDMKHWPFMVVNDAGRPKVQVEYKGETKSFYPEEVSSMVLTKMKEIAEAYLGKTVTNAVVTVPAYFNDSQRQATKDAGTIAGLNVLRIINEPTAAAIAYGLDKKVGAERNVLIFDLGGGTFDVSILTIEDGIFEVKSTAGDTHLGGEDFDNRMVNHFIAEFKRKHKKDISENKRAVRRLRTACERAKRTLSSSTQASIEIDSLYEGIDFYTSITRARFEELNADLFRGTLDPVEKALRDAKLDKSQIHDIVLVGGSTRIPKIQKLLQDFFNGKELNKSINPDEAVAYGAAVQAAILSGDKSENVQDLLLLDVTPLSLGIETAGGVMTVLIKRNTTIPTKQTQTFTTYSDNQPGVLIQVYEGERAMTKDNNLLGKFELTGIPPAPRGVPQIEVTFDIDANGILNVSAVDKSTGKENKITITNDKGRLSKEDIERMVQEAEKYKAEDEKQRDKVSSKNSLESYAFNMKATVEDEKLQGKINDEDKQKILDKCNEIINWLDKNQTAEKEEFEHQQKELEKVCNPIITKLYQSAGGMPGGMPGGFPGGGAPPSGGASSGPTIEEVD
Sequence of UniProt P12314 (whole entry, looked up): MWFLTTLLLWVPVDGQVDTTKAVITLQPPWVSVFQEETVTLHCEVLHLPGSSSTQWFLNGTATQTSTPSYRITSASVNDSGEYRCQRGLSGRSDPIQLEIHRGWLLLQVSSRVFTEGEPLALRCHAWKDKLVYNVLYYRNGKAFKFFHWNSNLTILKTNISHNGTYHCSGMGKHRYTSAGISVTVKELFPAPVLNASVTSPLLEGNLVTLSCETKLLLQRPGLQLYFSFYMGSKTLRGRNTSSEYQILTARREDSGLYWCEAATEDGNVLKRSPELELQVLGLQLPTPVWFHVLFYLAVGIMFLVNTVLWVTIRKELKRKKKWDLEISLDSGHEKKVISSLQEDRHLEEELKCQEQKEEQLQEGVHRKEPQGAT
Sequence of UniProt P05813 (whole entry, looked up): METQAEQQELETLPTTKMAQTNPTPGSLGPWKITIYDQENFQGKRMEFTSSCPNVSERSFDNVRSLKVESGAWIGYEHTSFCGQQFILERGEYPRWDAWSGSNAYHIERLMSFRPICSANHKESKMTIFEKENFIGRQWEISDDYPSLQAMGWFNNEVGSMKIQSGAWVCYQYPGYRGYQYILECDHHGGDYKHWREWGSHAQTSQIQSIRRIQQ
Sequence of UniProt P59215 (whole entry, looked up): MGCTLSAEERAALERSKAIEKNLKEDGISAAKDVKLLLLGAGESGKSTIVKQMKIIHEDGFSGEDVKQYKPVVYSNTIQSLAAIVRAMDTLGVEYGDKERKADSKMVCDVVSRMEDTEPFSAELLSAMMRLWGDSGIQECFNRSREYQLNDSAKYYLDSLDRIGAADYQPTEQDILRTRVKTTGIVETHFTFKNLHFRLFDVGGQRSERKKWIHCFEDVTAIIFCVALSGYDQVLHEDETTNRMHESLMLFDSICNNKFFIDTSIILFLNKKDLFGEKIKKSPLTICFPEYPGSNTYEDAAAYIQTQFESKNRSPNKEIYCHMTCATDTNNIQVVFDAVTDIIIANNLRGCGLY
Sequence of UniProt Q61851 (whole entry, looked up): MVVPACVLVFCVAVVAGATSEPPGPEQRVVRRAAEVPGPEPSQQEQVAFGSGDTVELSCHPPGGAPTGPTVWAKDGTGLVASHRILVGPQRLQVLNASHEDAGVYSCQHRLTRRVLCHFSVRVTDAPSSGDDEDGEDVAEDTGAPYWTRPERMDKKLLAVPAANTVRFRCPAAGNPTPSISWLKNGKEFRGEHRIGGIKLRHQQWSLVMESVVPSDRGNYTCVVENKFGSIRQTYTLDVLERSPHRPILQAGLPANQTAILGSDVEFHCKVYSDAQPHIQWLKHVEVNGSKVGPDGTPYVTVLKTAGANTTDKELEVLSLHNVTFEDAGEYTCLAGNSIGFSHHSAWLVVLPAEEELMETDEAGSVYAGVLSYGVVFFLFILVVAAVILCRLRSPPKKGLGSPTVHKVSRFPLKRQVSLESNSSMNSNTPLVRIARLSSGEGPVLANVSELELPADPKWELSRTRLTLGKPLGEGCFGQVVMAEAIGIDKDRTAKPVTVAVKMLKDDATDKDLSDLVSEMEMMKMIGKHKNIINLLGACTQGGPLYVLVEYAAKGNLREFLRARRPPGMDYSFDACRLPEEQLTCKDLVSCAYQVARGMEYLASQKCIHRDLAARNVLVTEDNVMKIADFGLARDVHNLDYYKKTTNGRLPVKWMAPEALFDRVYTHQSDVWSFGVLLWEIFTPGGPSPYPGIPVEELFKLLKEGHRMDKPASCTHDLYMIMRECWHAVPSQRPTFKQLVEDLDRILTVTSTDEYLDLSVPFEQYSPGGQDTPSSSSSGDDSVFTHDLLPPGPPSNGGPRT
Sequence of UniProt P49799 (whole entry, looked up): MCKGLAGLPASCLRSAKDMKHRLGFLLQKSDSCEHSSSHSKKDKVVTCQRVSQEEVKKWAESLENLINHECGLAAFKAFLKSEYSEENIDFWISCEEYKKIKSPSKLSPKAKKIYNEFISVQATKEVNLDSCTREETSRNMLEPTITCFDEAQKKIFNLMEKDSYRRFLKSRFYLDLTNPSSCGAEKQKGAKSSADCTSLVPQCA
Sequence of UniProt P09038 (whole entry, looked up): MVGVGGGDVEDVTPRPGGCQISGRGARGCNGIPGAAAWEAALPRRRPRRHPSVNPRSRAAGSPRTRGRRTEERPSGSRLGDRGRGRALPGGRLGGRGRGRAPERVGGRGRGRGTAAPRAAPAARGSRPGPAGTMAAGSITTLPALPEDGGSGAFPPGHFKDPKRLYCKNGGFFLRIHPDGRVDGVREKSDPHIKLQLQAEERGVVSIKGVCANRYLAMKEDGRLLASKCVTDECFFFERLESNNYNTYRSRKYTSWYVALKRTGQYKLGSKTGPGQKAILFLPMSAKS
Sequence of UniProt P32927 (whole entry, looked up): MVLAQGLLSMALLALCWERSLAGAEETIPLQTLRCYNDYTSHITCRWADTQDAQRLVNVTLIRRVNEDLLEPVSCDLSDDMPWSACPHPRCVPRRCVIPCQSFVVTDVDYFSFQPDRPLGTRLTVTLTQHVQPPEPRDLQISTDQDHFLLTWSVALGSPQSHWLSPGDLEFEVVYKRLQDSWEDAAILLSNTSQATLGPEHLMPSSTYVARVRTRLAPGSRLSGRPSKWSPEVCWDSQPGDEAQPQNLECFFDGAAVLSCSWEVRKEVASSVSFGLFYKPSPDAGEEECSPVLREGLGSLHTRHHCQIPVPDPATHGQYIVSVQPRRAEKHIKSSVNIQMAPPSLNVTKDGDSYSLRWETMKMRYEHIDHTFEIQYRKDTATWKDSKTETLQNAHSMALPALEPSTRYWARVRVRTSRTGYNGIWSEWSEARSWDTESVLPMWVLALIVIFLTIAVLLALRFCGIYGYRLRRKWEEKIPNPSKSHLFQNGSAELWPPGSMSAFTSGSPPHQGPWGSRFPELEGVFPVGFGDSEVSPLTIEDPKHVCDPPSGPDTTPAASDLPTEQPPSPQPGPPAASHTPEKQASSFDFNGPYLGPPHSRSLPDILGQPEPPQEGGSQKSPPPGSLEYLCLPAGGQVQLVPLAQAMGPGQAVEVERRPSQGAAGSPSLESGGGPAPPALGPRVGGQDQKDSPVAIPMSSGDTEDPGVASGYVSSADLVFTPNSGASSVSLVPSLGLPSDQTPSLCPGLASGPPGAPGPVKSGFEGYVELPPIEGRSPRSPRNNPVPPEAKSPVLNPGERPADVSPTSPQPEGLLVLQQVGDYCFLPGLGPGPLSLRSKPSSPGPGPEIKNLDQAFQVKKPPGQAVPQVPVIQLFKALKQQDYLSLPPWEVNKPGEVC

Molecule | tested on | test | test system | conditions | how to read | measurement | result
FGF2 (Homo sapiens, UniProt P09038) | FGFR3 isoform IIIc (unknown, UniProt Q61851) | cell proliferation, MTT | BaF3-FGFR3c | 20 nM, 48 h, together with: unmodified decamer 4.9 µg/mL | baseline: FGF 1 with heparin, higher = more proliferation | cell proliferation | 4%
B1 (Kcnt2 Q276E/Y279E) | Kcnt1 (Rattus norvegicus, UniProt Q9Z258-1) | patch clamp | Xenopus oocytes | – | – | unitary conductance | 324 pS
B2 (CDKN1A 9-84 del46-48) | CDK6/CCND1 | Cdk6/cyclin D1 kinase activity, inhibitor | – | – | baseline: wild-type p21-KID, higher = weaker inhibition | relative IC50 | > 40 fold
Hu 15C1 IgG1 N325S/L328F (Homo sapiens) | FCGR1A (Homo sapiens, UniProt P12314) | LPS-induced TLR4 activation | THP1-XBlue | without IVIg | baseline: format without Fc, higher = greater potency gain | potency gain | > 1000 fold
RCVRLHESCLGQQVPCCDPCATCYCRFFNAFCYCRKLGTAMNPCSRT (AGRP 86-132 (Homo sapiens, UniProt O00253); sequence looked up) | MC4R D189S (Homo sapiens, UniProt P32245) | cAMP, inverse agonist, AlphaScreen | HEK293 | apparent | – | inverse agonist EC50 | 20 nM
GNAO1 (Rattus norvegicus, UniProt P59215) | RGS4 (Rattus norvegicus, UniProt P49799) | pull-down | rat brain | together with: GTPγS 1 µM | baseline: no nucleotide, higher = more Goα bound | relative binding | 2.8 fold
CSF2 residues 3-end (Homo sapiens) | CSF2RB (Homo sapiens, UniProt P32927) | radioligand binding | TF-1 | – | baseline: full-length GM-CSF, higher = tighter binding | lower KD of low-affinity site | 83%
Ac-TGGFQMALT (peptide; N-acetyl) | HSPA8 395-509 (Homo sapiens, UniProt P11142) | competition with tracer, fluorescence polarisation | peptide | together with: FAM-Cdk4-2 tracer | – | Ki | 120 ± 10 nM
CGA/LHB (Equus caballus) | LHCGR Y558F (eel) | cAMP response, agonist, HTRF | CHO-K1 | 30 min, room temperature | – | EC50 | 0.345 µg/mL
pyrrhocoricin-P7 fusion, N-terminal FITC, Cha, free acid (Pyrrhocoris apterus) | dnaN (Escherichia coli, UniProt P0A988) | bactericidal activity | E. coli D22 | – | – | MBC | 128 µg/mL
B3 (CRYBB1 59-252) | CRYBA1, Alexa Fluor 488 label (Homo sapiens, UniProt P05813) | FRET | – | pH 7.5, 37 °C, 100 mM NaCl | – | subunit exchange rate | 0.0072 ± 0.0013 min⁻¹
B4 (UGT1A9) | Oc1ccc(/C=C/c2cc(O)cc(O)c2)cc1 | steady-state kinetics | – | pH 7.4, 37 °C | – | Km | 3.09 µM

A few entries again:
Molecule | tested on | test | test system | conditions | how to read | measurement | result
CGA/LHB (Equus caballus) | LHCGR Y558F (eel) | cAMP response, agonist, HTRF | CHO-K1 | 30 min, room temperature | – | EC50 | 0.345 µg/mL
